Published values collected from several papers.
Parts stem from different laboratories: compare values within a part only. Changes are numbered by the printed parent chain.

Set 1 — method: aptamer microarray, sandwich; form: DNA with 2'F-ANA; medium: in vitro; concentration: 200 nM; together with: Cy3 exosite-II aptamer, 400 nM; reading: higher = stronger binding; sequence: GGTTGGTGTGGTTGG
Target: Prothrombin, mature alpha-thrombin (F2, Homo sapiens, UniProt P00734)
Setting: whole 15-mer aptamer, many near background
Modification | mean fluorescence intensity [a.u.]
2'F-ANA at 1 3 4 5 7 9 10 11 12 14 15 | 74
2'F-ANA at 2 3 4 5 8 13 14 15 | 50.2
2'F-ANA at 1 3 4 5 7 8 9 10 12 13 14 15 | 51.7
2'F-ANA at 2 3 5 7 8 13 15 | 77.2
2'F-ANA at 1 2 4 5 6 8 9 11 12 | 111
2'F-ANA at 1 3 4 5 12 13 15 | 82.2
2'F-ANA at 2 5 8 10 15 | 56
2'F-ANA at 1 3 4 5 6 7 9 15 | 60.3
2'F-ANA at 1 2 3 6 7 9 10 11 12 13 14 | 61
2'F-ANA at 2 3 5 7 8 13 | 94.5
2'F-ANA at 2 5 6 7 8 12 13 15 | 112
2'F-ANA at 6 7 8 10 11 14 | 103
2'F-ANA at 5 7 8 9 10 11 13 14 | 46.8
2'F-ANA at 2 4 5 7 8 9 | 85.9
2'F-ANA at 1 2 6 9 10 11 12 15 | 63.6
2'F-ANA at 1 2 4 7 11 12 14 | 61.6

Set 2 — target: CCNA2, cyclin fold, Cln2 fusion (human); method: yeast growth competition, sequencing; medium: yeast; setting: strong parent motif; relative to: not given; reading: higher = stronger binding
Starting sequence: ANKRD17 docking peptide (human); PSVRRQLFVTVVK; partner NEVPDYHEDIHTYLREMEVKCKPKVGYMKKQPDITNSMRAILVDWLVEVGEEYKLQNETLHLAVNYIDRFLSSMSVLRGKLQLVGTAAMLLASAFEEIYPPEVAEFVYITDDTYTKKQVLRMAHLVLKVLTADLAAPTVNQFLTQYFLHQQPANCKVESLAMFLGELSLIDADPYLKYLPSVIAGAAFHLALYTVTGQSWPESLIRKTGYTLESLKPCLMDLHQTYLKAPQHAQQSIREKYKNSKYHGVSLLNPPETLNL
Change | normalised enrichment score
PSARRQLFVTVVK [V3A] | 5.77
PSVRAQLFVTVVK [R5A] | 2.94
PSVRRQLAVTVVK [F8A] | 1.39
PSVRRALFVTVVK [Q6A] | 4.17
PSVRKQLLVTVVK [R5K F8L] | 1.82
PAVRRQLFVTVVK [S2A] | 4.67
PSVRRQLFVTVAK [V12A] | 5.58

Set 3 — method: RNA Bind-n-Seq; form: RNA; medium: in vitro; concentration: not given; relative to: input RNA pool; reading: higher = stronger binding
Target: RING finger protein unkempt homolog, zinc fingers 1-6, GST-SBP tag (UNK, Homo sapiens, UniProt Q9C0B0, residues 30-357)
Setting: RNA with constant flanks, human and mouse sites, ends assumed
All sequences stand within: GGGAGUUCUACAGUCCGACGAUC … CAACAGAGGAUUGAGCAUCA
Residues (chain): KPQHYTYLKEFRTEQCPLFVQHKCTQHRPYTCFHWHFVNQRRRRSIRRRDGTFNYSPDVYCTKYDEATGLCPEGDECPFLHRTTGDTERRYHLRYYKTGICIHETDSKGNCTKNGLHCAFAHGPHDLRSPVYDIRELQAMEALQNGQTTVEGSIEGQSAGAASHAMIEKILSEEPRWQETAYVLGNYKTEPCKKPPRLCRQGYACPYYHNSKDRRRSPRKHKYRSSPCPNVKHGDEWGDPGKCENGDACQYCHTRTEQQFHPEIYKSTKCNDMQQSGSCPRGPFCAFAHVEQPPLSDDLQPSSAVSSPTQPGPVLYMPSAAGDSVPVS
Sequence | bound/input enrichment [ratio]
CGCCUCAUCUACCGCUCGGGCGGCGAAGACGAAAGUCGGCACGACGCGCUCGACACGCGGGUGCGGGGCGACCUCGGUGGCCCGCAGUUGACUCAUGUUGACCAAGCAAGCUUCCAGGUU | 0.041
CUCAAAAGGAAGUAAGGAUUUUACAAGACAGAUUAAAAAAAAAUUGUUUUGUCCAAAAUAUAGUUGUUGUUGAUUUUUUUUUAAGUUUUCUAAGCAAUAUUUUUCAAGCCAGAAGUCCUC | 2.49
AUACAAGCCUUACCAACAAUUACAGAAACAUUAAACACUAUGACACAUUACCUUUUUAGCUAUUUUUAAUAGUCUUCUAUUUUCACUCUUGAUAAGCUUAUAAAAUCAUGAUUGAAUCAG | 13.3
GGCAAGGCUGCCGUUGUGUCCGAGGCACAGGACAGCCAGGUCACAAGCACCAAGAGUAAGUCCUCAGCUGAGGUCAAGUUCGCCAUUAAAAGGACUCUGGUAGGGCCCCGGGGGAGCAGC | 0.141
UUCUUCGCCUUUGAGUGCCGCUACCUGGCUGUUCAGCUGUCUCCUGCCAUCCCUGUAUUUGCUGCCAUGCUCUUCCUUUUCUCCAUGGCUACACUGUUGAGGACCAGCUUCAGUGACCCU | 0.242
UGCUCCUGUUCACAAUCACACUGCUGCUCUAGAUACCUGUGUAUGGGAGCCAUGUCUUUAUUUUUACCUUGCUUACUCUGUUAUCCUCCUGCUAAAGGAUGCCUGAAGCUGUGCAGGAGG | 0.449
CUUGGCCAGGAGGGGGAUGCCAGCUAUCUUGCUUCUGAAAUAUCUACCUGGGAUGGAGUGAUUGUGACACCCUCAGAAAAGGCUUAUGAGAAGCCACCUGAGAAGAAGGAGGGGGAGGAA | 0.252
UUUUCCUCUUCUUCCUCAUCCUCCUCUGGACCUAGGACUUUCUACCCUCGCCAGGGCGCCACUAGCAAAUAUCUGAUUGGAUGGAAAAAGCCAGAAGGAACCAUUAACUCCGUGGGAUUU | 1.67
AGUUAUUCAGCAGGAAGGGGCUUAGAGGGGAAUGCUAACUCACCUGCCCACCUGAGAGGACCAGAACAGACGUCUGGGCAGACGGCUAAGGAUCCCUCUGUCAGCAUUCGCUAUUUGGCA | 0.218
CAUAGAGGAGAAGGAAAAAGAUAGCUUUACUGCUGUGGUUAUCACAGGGGUACAACCAGAACACAUACAGUACUUGAAAAAUUAUUUCCACCUUUGGACACGACAGUUAGCGCAUAUUUA | 3.5
CCUUUGGCAGAAAUUUAUGAGCAACACGUCACUAAAGUGAAUGAAGAGGUAGCCAAACUUCGUCGGCGUCUCAUGGAACUGAUCAGCUUAGUUCAAGAAGUGGAAAGGAAUGUAGAAGCU | 0.82

Set 4 — method: protein-binding microarray; form: double-stranded DNA, one strand shown; medium: in vitro; concentration: 0.8 µM; setting: whole 60-bp probe, no competitor; reading: higher = stronger binding; all sequences stand within: … GTCTTGATTCGCTTGACGCTGCTG
Target: Centromere-binding protein 1, full length, N-terminal tag (CBF1, Saccharomyces cerevisiae, UniProt P17106, residues 1-351)
Sequence of UniProt P17106 (whole entry, looked up): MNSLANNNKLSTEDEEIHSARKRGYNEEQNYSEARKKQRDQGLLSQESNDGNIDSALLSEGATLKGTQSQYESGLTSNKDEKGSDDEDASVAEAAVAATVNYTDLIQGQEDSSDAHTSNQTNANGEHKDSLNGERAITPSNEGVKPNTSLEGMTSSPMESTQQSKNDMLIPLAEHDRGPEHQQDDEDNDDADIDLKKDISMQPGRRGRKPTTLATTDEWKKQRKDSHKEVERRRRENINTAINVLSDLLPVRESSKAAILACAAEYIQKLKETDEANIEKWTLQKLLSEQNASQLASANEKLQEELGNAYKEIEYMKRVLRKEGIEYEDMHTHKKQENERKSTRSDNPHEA
Sequence | fluorescence intensity
CTACCAAAAAAAGGTGACGAAAGCTCCAATTTATTC | 524 a.u.
CTAATGTGTCATCCGCGGGTGAGGTAAACGCTGTTC | 481 a.u.
GAATGGCAACAGTACATCAGAAGAATATGTCGATAG | 565 a.u.
GAAAAATGAAGAAACCAGGTGAAGAGATCCTTTTAG | 504 a.u.
CTATCTGCAAGTTACCGTGTCACCTTCACAGTTTTC | 606 a.u.
GAACTAAAGAAATGTCTGGTGAAAATATCAATATAG | 554 a.u.
GAAGAGTCATTTGGTCATGAGAGTAGCTATGTTTAG | 633 a.u.
GAACAGCTTCCACCAAGCCTGATCACCGTTTACTAG | 482 a.u.
CCTAACTACTATAATCATCAGTTATAGCTTCGTACA | 494 a.u.
CTATTTCTTACGCGTTGCGTGTAAAACATCCTCTTC | 496 a.u.
CTATTTGCAAAGTCTGTCATCAGGGCTTGATAATTC | 570 a.u.
CTACGATAGTATGCCCCCGTGATCTTAGTTATTTTC | 2420 a.u.
CTATTATATTTGAATCTGGTGATAGCACCGAGGTTC | 485 a.u.
GAATAAATAGACACTCACATGTATATTAATTTATAG | 1060 a.u.
CTAATTAAAGATGAACAGGTGAGACAATATCAATTC | 603 a.u.
GAAAACTTAAAAGGACACGTTTGAACTCATAATTAG | 539 a.u.
GAACGATGTGATTGTGATGTTATGTCTCTGGACTAG | 533 a.u.

Set 5 — method: protein binding microarray; form: double-stranded DNA, one strand shown; medium: in vitro; concentration: not given; relative to: not given; reading: higher = stronger binding
Target: Histone acetyltransferase KAT6A, winged helix 2, GST fusion (KAT6A, Homo sapiens, UniProt Q92794, residues 85-181)
Setting: 8-mer, flanks averaged, mean of 2 arrays, mostly near background
Target sequence (chain): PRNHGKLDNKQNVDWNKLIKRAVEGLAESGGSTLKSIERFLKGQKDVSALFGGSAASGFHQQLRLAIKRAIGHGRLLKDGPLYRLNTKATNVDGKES
Sequence | E-score
ACCCAATA | -0.00103
CGGCCGAC | 0.166
CACACCCG | 0.0767
CGAAACCG | 0.167
CCTATCTC | -0.205
CCTACTCC | -0.134
ACGGCGGG | 0.199
ATAGCAAT | -0.0107
CATCAATC | -0.133
AGTCTCCG | 0.00985
CACAGACG | -0.0918
ATTGCAAG | -0.072
CTAGTGTC | 0.0232
CTGCCATA | -0.11
CTAACAGA | 0.0167
GCCATCTA | -0.153
CGTCGGTC | 0.187

Set 6 — method: protein-binding microarray; form: double-stranded DNA, one strand shown; medium: in vitro; concentration: 250 nM; setting: 60-bp whole probe; together with: salmon DNA 0.4 mg/ml; relative to: random background probes; reading: higher = stronger binding; all sequences stand within: GCCTAGCAC … GTCTTGATTCGCTTGACGCTGCTG
Target: Interferon regulatory factor 7, full length, phosphomimetic (IRF7, Homo sapiens, UniProt Q92985, residues 1-503, S101K/S471D/S472D/S475D/S476D/S477D/S483D/S484D/S487D)
Residues (chain): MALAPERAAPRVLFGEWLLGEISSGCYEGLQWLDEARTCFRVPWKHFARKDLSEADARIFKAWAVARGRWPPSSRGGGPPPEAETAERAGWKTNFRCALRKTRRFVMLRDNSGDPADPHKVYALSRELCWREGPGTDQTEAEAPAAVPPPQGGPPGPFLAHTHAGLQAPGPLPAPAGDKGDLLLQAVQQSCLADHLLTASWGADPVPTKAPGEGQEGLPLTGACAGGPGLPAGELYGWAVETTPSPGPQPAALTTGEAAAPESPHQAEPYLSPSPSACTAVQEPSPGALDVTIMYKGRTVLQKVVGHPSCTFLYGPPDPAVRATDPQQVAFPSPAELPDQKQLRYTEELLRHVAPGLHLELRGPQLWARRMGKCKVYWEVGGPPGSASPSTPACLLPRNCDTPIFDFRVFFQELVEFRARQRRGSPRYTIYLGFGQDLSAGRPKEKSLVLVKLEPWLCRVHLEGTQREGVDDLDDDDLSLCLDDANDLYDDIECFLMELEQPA
Sequence | log fluorescence
GACGGTATCATTCTCCTGACGTGCTAG | 0.173 z-score
GACGTTATCCTTTTCCTGACGTGCTAG | 1.06 z-score
TTAGATTTCCGTCTCGATTAGTGCTAG | 1.14 z-score
GACGAGATCAGACTGGAGACGTGCTAG | -0.316 z-score
GACGAACTCAGACTGGAGACGTGCTAG | -0.216 z-score
GACGGTCTCGGGCTCGGGACGTGCTAG | 0.168 z-score
GACGGTTTCCTACTGCTGAAGTGCTAG | 1.76 z-score
TCAAATCTCTCATGTTACACTGTGCTA | 0.278 z-score
TTAGGTTTCAGGACTGGGTTAGTGCTA | 0.5 z-score
GACGGTTTACTTATCCTGACGTGCTAG | 0.23 z-score
TTAGGACTCGGTCTCGGTTAGTGCTAG | 2.37 z-score
CAAGTTTCTCCTTTCCAAATGTGCTAG | 4.67 z-score
GGCCTTGGAGGGGGTGGGTGGTGCTAG | 2.46 z-score
CTCCTTCAGTATCCTTAGATGTGCTAG | 0.39 z-score
CACGGTATCGGGTATCGGGACGTGCTA | 0.621 z-score
GACGGTTTCGCTATCGGGACGTGCTAG | 8.58 z-score
TTAGGAATCGACTATCGGTTAGTGCTA | -0.0488 z-score
GAAGATATCAGTTTCGAGACGTGCTAG | 4.62 z-score
TCAGTGGTCTGTTTCTGACTGTGCTAG | -0.261 z-score
TCAAGGATGGTTTTCAGACTGTGCTAG | -0.686 z-score

A few entries again (set 4):
Sequence | fluorescence intensity
CTATCTGCAAGTTACCGTGTCACCTTCACAGTTTTC | 606 a.u.
GAACTAAAGAAATGTCTGGTGAAAATATCAATATAG | 554 a.u.
GAAGAGTCATTTGGTCATGAGAGTAGCTATGTTTAG | 633 a.u.
GAACAGCTTCCACCAAGCCTGATCACCGTTTACTAG | 482 a.u.
CCTAACTACTATAATCATCAGTTATAGCTTCGTACA | 494 a.u.
